Published values pooled from the literature.
Several values in a cell are separate wells, animals, samples, runs or records.
LRRK2 G2019S: Leucine-rich repeat serine/threonine-protein kinase 2 (LRRK2, Homo sapiens, UniProt Q5S007, G2019S)
LRRK2: Leucine-rich repeat serine/threonine-protein kinase 2 (LRRK2, Homo sapiens, UniProt Q5S007)

With `C=CC(=O)N1CCc2ccc(-n3c(=O)ccc4cnc5ccc(-c6cnn(C)c6)cc5c43)cc21` the remaining binding was 95% (LRRK2 G2019S; KINOMEscan; 1 µM; relative to: DMSO control).
With `CC(C)=CC1OC(C)(C)C2C=C3C(=O)C(Cl)=CC(O)C3C3C(O)C4OC4C(=O)C132` (stereo not drawn) the remaining binding was 64% (LRRK2; cell-free assay, competition with immobilised ligand; 10 µM).
`C[C@]1(O)CCCN(c2nc(Nc3ccc(S(=O)(=O)N[C@H]4CC[C@H](CN5CCN(c6ccc(C7CCC(=O)NC7=O)cc6F)CC5)CC4)cc3)ncc2C(F)(F)F)C1` (stereo partly drawn) has a remaining binding of 45% (LRRK2; binding, competition with immobilised ligand; 1 µM).
`C=CC(=O)N1CCCC(n2c(=O)c3ncccc3n(Cc3ccc(Oc4ccccc4)cc3)c2=O)C1` (stereo not drawn) gave a remaining binding of 73% (LRRK2 G2019S; cell-free assay, competition with immobilised ligand; 1 µM).
`Cc1cccc(O[C@H]2CCC[C@@H](C(C)CNCc3ccncc3)C2)c1` (relative stereo) has an inhibition of -3% (LRRK2 G2019S; enzyme activity, inhibitor; 10 µM).
For `CCn1cc(C(=O)O)c(=O)c2c(N)c(F)c(NC3CCCCC3)cc21`, the inhibition was -10.7% (LRRK2; kinase activity; 0.1 µM, with: ATP at Km).
For `NC(=O)C[C@H]1CCc2sc3ncnc(O[C@H]4CC[C@H](N5CCOCC5)CC4)c3c21`, the inhibition was 6% (LRRK2; enzyme activity, inhibitor; 10 µM).
`Cc1ccc(-c2c(/C=C(\C#N)C(=O)NC(C)C)n(CCCO)c3ncnc(N)c23)cc1` has a remaining binding of 93% (LRRK2; cell-free assay, competition with immobilised ligand; 1 µM).
`Nc1ncc(-c2cc(-c3cnn(CC(F)(F)F)c3)ncc2F)nc1C(=O)NC1CNCC(F)C1` (stereo not drawn) gave a remaining activity of 72.9% (LRRK2; enzyme activity; 1 µM; relative to: DMSO control).
The remaining binding of `Cc1cnc2nc1Nc1cccc(c1)COC/C=C/COCc1cc(ccc1OCCN1CCOCC1)N2` is reported as 100% (LRRK2; binding; 0.1 µM).
`CNC1C[S+]2CC[S+]3CC[S+](C1)[Ru-4]321([N]=C=S)[n]2c3ccc(OC)cc3c3c4c(c5cc(F)c[n+]1c5c32)C(=O)NC4=O` (stereo not drawn) has a remaining binding of 85% (LRRK2; KinomeScan; 0.1 µM; relative to: untreated).
For `COc1c(Cl)cccc1Nc1c(-c2ccncc2C#C[C@@]2(C)CCCN2C(=O)/C=C/CN(C)C)[nH]c2c1C(=O)NCC2`, the remaining binding was 86% (LRRK2; binding, competition with immobilised ligand; 3 µM).
With `C[C@H]1CN(C(=O)c2cn(-c3ccnc(N)n3)c3cc(C#CC4(O)CCCCC4)ccc23)CCN1` the inhibition was 8% (LRRK2; enzyme activity, inhibitor; 1 µM).
`C=CC(=O)Nc1cccc(-c2cnc3[nH]cc(C(=O)NC(C)(C)C)c3n2)c1` gave an inhibition of 63% and 62% (LRRK2 G2019S; kinase activity; 0.1 µM).
`CNC(=O)C1CCN(c2cc(C)c(F)cc2NC(=O)c2ccc(-c3cc(O)ccc3C)c(C)c2)CC1` gave a remaining binding of 75% (LRRK2 G2019S; binding, competition with immobilised ligand; 1 µM).
The inhibition of `CN1CC[C@@H](COc2cnc(C#N)cc2-c2ccn3nc(NC(=O)C4CC4)cc3c2)C1` is reported as 17% (LRRK2; enzyme activity, inhibitor; 1 µM).
With `Nc1ncc2c(n1)-c1c([nH]c3ccc(C4=CCOCC4)cc13)CCC2` the remaining binding was 80% (LRRK2; binding, competition with immobilised ligand; 1 µM).
`CCN1CCN(Cc2ccc(C(=O)Nc3ccc(C)c(NCc4cnc5[nH]ccc5c4OC)c3)cc2C(F)(F)F)CC1` has a remaining binding of 89% (LRRK2 G2019S; binding, competition with immobilised ligand; 1 µM).
